Assay results gathered from unrelated publications.
Parts stem from different laboratories: compare values within a part only.
Sequence of UniProt P10721 (whole entry, looked up): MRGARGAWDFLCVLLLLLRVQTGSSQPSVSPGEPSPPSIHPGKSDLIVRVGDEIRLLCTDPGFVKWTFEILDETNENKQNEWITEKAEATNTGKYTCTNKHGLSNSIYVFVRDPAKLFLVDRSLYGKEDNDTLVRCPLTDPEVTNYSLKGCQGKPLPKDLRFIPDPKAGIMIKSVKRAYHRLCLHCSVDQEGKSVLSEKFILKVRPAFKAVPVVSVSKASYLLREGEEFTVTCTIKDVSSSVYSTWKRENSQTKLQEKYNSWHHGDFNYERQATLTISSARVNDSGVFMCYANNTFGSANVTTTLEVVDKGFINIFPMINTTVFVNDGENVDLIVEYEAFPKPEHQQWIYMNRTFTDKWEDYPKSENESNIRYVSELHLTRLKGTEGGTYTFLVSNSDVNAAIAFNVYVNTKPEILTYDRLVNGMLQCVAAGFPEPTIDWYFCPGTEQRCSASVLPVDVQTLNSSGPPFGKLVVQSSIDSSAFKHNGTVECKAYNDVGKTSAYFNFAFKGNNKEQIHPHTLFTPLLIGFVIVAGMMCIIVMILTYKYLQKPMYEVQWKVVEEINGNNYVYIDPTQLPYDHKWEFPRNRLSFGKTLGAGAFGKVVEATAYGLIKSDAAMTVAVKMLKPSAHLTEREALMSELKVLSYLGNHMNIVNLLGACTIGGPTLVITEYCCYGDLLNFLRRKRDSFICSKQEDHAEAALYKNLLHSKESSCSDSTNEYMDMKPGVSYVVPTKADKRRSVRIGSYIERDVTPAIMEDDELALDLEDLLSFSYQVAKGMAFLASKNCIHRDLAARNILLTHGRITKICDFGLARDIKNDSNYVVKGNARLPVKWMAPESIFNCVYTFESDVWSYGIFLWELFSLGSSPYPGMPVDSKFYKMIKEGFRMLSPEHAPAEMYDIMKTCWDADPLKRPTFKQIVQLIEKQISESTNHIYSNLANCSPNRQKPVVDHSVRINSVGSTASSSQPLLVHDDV
Sequence of UniProt Q15418 (whole entry, looked up): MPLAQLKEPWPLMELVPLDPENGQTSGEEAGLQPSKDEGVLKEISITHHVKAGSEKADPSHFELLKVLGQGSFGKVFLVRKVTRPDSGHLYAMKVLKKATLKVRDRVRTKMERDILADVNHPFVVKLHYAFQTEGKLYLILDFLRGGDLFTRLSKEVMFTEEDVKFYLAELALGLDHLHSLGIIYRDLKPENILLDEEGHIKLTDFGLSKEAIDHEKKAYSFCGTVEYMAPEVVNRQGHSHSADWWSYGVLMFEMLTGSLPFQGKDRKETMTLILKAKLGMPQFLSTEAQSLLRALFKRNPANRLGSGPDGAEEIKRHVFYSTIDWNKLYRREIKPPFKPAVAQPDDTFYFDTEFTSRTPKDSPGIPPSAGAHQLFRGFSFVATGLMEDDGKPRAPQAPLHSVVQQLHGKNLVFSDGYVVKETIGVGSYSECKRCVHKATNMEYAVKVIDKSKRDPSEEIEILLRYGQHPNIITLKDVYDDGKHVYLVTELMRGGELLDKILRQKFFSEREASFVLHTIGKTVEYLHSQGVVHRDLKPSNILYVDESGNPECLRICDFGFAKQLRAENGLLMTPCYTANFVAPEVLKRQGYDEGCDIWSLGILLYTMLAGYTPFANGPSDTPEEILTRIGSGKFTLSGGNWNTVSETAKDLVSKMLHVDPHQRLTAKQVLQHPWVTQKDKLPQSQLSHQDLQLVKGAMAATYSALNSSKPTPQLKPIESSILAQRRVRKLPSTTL
Sequence of UniProt Q86UE8 (whole entry, looked up): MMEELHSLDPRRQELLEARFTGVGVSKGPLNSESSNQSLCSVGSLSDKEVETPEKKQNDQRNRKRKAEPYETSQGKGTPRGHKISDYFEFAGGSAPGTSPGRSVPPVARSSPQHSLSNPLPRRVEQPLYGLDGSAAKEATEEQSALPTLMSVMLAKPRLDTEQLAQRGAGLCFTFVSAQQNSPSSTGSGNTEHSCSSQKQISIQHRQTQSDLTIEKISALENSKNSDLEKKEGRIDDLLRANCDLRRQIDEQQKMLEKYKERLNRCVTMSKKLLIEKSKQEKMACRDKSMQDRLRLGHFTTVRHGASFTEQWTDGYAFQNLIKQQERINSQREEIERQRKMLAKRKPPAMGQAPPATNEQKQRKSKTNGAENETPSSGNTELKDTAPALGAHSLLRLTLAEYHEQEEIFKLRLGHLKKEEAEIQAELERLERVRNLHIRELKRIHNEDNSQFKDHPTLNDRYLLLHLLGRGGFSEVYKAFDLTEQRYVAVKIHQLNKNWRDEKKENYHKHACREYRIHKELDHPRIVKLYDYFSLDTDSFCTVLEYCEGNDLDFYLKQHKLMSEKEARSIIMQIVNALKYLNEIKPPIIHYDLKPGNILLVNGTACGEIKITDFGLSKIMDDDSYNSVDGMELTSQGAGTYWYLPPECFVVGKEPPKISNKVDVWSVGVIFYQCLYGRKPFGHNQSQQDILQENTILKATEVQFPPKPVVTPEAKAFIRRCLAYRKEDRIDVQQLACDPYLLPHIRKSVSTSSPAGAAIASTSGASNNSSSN
Sequence of UniProt Q9Y2H1 (whole entry, looked up): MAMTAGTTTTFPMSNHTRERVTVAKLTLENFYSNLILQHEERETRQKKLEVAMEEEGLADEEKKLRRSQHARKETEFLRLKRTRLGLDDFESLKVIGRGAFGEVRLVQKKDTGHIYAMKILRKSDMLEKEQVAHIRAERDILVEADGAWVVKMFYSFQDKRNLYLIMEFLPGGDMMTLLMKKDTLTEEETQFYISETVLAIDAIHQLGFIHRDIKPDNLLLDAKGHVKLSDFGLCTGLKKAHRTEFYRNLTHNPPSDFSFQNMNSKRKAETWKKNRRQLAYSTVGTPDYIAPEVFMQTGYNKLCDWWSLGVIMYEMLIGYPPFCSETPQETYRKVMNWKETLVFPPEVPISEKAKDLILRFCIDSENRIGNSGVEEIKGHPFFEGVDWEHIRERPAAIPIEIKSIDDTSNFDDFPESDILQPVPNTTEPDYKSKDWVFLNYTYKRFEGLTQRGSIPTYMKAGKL
Sequence of UniProt P57059 (whole entry, looked up): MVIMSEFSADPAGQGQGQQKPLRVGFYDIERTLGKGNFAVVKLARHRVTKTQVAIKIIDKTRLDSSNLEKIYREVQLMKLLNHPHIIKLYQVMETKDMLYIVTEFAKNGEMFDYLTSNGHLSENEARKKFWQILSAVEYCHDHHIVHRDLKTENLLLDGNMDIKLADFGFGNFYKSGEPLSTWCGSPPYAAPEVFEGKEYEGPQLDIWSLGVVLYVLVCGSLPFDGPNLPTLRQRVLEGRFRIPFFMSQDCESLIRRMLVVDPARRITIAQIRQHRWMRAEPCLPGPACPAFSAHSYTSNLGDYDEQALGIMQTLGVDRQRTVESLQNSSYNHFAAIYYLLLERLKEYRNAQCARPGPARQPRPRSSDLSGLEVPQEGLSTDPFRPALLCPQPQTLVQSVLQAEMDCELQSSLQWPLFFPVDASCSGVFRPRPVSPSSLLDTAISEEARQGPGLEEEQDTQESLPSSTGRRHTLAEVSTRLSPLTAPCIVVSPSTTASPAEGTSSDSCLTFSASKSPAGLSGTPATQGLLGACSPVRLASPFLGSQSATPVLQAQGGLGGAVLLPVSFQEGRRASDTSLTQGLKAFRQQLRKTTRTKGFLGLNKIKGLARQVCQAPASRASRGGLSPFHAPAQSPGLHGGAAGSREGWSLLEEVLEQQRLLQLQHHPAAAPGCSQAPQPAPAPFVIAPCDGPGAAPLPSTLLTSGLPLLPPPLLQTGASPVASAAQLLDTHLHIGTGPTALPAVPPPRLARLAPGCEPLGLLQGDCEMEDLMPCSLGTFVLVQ
Sequence of UniProt P49137 (whole entry, looked up): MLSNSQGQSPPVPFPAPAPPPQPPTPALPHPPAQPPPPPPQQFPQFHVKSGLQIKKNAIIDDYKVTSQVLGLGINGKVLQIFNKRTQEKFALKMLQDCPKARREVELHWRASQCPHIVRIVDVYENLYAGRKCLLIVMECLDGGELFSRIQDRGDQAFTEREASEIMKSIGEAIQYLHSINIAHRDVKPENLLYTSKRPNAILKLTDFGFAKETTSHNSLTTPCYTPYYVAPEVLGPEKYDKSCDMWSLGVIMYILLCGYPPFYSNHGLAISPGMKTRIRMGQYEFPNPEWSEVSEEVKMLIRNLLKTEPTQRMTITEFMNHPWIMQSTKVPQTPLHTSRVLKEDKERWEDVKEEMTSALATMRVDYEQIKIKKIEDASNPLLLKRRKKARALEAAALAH
Sequence of UniProt Q99640 (whole entry, looked up): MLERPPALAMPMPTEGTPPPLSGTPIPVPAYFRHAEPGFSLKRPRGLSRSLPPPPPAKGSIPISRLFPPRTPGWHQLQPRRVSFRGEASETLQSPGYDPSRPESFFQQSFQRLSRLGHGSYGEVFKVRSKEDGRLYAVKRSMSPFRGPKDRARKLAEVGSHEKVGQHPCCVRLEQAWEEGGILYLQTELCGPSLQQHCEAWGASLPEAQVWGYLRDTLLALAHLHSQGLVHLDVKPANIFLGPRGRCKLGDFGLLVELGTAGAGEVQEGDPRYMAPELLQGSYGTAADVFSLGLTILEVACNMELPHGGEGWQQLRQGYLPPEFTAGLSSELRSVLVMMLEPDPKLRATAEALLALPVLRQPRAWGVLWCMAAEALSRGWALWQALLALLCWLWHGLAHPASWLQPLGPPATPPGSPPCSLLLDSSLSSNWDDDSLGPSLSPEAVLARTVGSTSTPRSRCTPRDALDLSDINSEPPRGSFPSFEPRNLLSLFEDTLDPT
Sequence of UniProt Q9HCP0 (whole entry, looked up): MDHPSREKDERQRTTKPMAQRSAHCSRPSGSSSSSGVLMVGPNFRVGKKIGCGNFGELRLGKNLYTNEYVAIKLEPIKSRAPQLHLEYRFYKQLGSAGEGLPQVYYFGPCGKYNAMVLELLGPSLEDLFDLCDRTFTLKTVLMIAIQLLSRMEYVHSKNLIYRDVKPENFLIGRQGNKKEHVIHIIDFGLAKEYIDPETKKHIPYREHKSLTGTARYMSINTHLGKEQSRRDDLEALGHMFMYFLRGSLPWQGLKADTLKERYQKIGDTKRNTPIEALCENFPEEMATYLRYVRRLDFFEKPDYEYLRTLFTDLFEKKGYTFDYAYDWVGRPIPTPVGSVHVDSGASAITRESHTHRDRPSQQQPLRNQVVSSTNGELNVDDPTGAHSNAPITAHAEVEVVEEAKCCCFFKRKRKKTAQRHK

Sample 1 — observed: binding; concentration: 1 µM
Compound: CN1CCN(C(=O)c2ccc(NC(=O)Nc3ccc(N(C)c4ccnc(Nc5ccc(CS(C)(=O)=O)cc5)n4)cc3)cc2)CC1
target | technique | remaining binding [%]
STK38L (Homo sapiens, UniProt Q9Y2H1) |  | 100
PKMYT1 (Homo sapiens, UniProt Q99640) | competition with immobilised ligand | 96
SIK1 (Homo sapiens, UniProt P57059) | competition with immobilised ligand | 92
STK17A (Homo sapiens, UniProt Q9UEE5) |  | 100
MET (Homo sapiens, UniProt P08581, M1250T) |  | 2.2
STK33 (Homo sapiens, UniProt Q9BYT3) | competition with immobilised ligand | 92
MAP3K12 (Homo sapiens, UniProt Q12852) |  | 30
MAPK6 (Homo sapiens, UniProt Q16659) |  | 100
NEK11 (Homo sapiens, UniProt Q8NG66) | competition with immobilised ligand | 100
LYN (Homo sapiens, UniProt P07948) | competition with immobilised ligand | 71
Ribosomal protein S6 kinase alpha-5, C-terminal kinase domain (RPS6KA5, Homo sapiens, UniProt O75582) | competition with immobilised ligand | 87
PAK3 (Homo sapiens, UniProt O75914) |  | 0
CDK15 (Homo sapiens, UniProt Q96Q40) | competition with immobilised ligand | 100

Sample 2 — cell line: A-375; concentration: 100 µM; time: 18 h
SMILES | viability [%]
O=C1c2cccc3c2[C@H](CCC3)CN1[C@@H]1CN2CCC1CC2 | 57.1
CC[C@H]1[C@@H](O)[C@@H]2[C@H](CC[C@]3(C)[C@@H]([C@H](C)CCC(=O)O)CC[C@@H]23)[C@@]2(C)CC[C@@H](O)C[C@@H]12 | 30.3
Cc1c(O)cccc1C(=O)N[C@@H](CSc1ccccc1)[C@H](O)CN1C[C@H]2CCCC[C@H]2C[C@H]1C(=O)NC(C)(C)C | 30
CC(C)N(CCCCOCC(=O)NS(C)(=O)=O)c1cnc(-c2ccccc2)c(-c2ccccc2)n1 | 43.4
Cc1ccc2c(Cl)cc(Cl)c(O)c2n1 | 50.4
CCCCC1(COC(=O)CCC(=O)O)C(=O)N(c2ccccc2)N(c2ccccc2)C1=O | 107
COC(=O)C1=C(C)NC(C)=C(C(=O)OCCN(C)Cc2ccccc2)C1c1cccc([N+](=O)[O-])c1 (stereo not drawn) | 20.2
O=C1CC2(CCCC2)CC(=O)N1CCCCN1CCN(c2ncccn2)CC1 | 79.5
CNC[C@@H](O)c1ccc(O)c(O)c1 | 96.8
O=C(O)CCC(=O)Nc1ccc(S(=O)(=O)Nc2nccs2)cc1 | 94.7
Cn1c([N+](=O)[O-])cnc1COC(N)=O | 108
O=C(OCc1ccccc1)c1ccccc1 | 34.2
Nc1ccc(O)c(C(=O)O)c1 | 96.5
CC(=O)OCC(=O)NCCCOc1cccc(CN2CCCCC2)c1 | 89.8
C[C@H]1COc2c(C3(N)CC3)c(F)cc3c(=O)c(C(=O)O)cn1c23 | 61.8
C[C@H]1[C@H](C)CC[C@]2(C(=O)O)CC[C@]3(C)C(=CC[C@@H]4[C@@]5(C)C[C@@H](O)[C@H](O)[C@@](C)(CO)[C@@H]5CC[C@]43C)[C@H]12 | 8.22

Sample 3 — sample: hydrocarbon/water
Structure (SMILES) | logD
CCCN1CC(=O)N[C@@H](CC2CCCCC2)C(=O)N2CCC[C@@H]2C(=O)N(C)[C@@H](C)C(=O)N[C@@H](CC2CCCCC2)C(=O)N(C)[C@@H](C)C(=O)N[C@@H](CC(C)C)C(=O)N(C)Cc2cn(nn2)CC(=O)N[C@@H](CC(C)C)C1=O | 1.96
CCCCCN1CC(=O)NC(CC(C)C)C(=O)N(C)C(C)C(=O)NC(C)C(=O)N2CCCC2C(=O)N(CCCOC(C)C)CC(=O)NC(CC(C)C)C(=O)N(C)C(C)C(=O)NC(CC(C)C)C(=O)N2CCCC2C1=O (stereo not drawn) | 2.52
CCCN1CC(=O)N[C@@H](CC2CCCCC2)C(=O)N(C)[C@@H](C)C(=O)N[C@@H](CC(C)C)C(=O)N(C)Cc2cn(nn2)CC(=O)N[C@@H](CC(C)C)C(=O)N(C)[C@@H](C)C(=O)N[C@@H](CC(C)C)C(=O)N2CCC[C@@H]2C1=O | 1.15
CCCCCN1CC(=O)N[C@@H](Cc2ccccc2)C(=O)N2CCC[C@@H]2C(=O)N(C)[C@@H](CC(C)C)C(=O)N[C@@H](C)C(=O)N(CCCOC(C)C)CC(=O)N[C@@H](CC(C)C)C(=O)N2CCC[C@@H]2C(=O)N(C)[C@@H](CC(C)C)C(=O)N[C@@H](C)C1=O | 2.96
CCCCCN1CC(=O)N[C@@H](C)C(=O)N2CCC[C@@H]2C(=O)N(C)[C@@H](CC(C)C)C(=O)N[C@@H](C)C(=O)N(CCCOC(C)C)CC(=O)N[C@@H](CC(C)C)C(=O)N2CCC[C@@H]2C(=O)N(C)[C@@H](CC(C)C)C(=O)N[C@@H](C)C1=O | 1.97
CCC[C@@H]1NC(=O)[C@H](C)N(C)C(=O)[C@H](CC(C)C)NC(=O)Cn2cc(nn2)CN(C)C(=O)[C@H](CC(C)C)NC(=O)[C@H](C)N(C)C(=O)[C@H](CC)NC(=O)[C@H](CC)N(C)C(=O)[C@H]2CCCN2C1=O | -1.75
CCC[C@H]1C(=O)N[C@@H](CC2CCCCC2)C(=O)N(C)[C@@H](C)C(=O)N[C@@H](CC(C)C)C(=O)N(C)Cc2cn(nn2)CC(=O)N[C@@H](CC(C)C)C(=O)N(C)[C@@H](C)C(=O)N[C@@H](CC2CCCCC2)C(=O)N2CCC[C@@H]2C(=O)N1C | 2.36
CCC[C@H]1NC(=O)CSC[C@@H](C(=O)OCC)N(C)C(=O)[C@H](CC(C)C)NC(=O)[C@@H](C)N(C)C(=O)[C@H](CC(C)C)NC(=O)[C@H](C)N(C)C(=O)[C@H]2CCCN2C(=O)[C@H](CC(C)C)NC(=O)CN(CCC)C1=O | 1.45
CCOC(=O)[C@@H]1CSCC(=O)N[C@@H](CC)C(=O)N(C)[C@@H](C)C(=O)N[C@H](CC(C)C)C(=O)N2CCC[C@H]2C(=O)N(CC)CC(=O)N[C@H](CC(C)C)C(=O)N(C)[C@@H](C)C(=O)N[C@@H](CC(C)C)C(=O)N1C | 1.68
CC[C@H]1C(=O)N[C@@H](CC(C)C)C(=O)N(C)[C@@H](C)C(=O)N[C@@H](CC(C)C)C(=O)N(C)Cc2cn(nn2)CC(=O)N[C@@H](CC(C)C)C(=O)N(C)[C@@H](C)C(=O)N[C@@H](CC(C)C)C(=O)N2CCC[C@@H]2C(=O)N1C | 0.0181
CCCN1CC(=O)N[C@@H](CC(C)C)C(=O)N2CCC[C@@H]2C(=O)N(C)[C@@H](C)C(=O)N[C@@H](CC)C(=O)N(C)[C@@H](C)C(=O)N[C@@H](CC(C)C)C(=O)N(C)Cc2cn(nn2)CC(=O)N[C@@H](CC(C)C)C1=O | -1.36
CC[C@H]1NC(=O)[C@H](CC(C)C)NC(=O)[C@H](Cc2ccc(O)cc2)NC(=O)[C@H]2CCCN2C(=O)[C@H](CC2CCCCC2)NC(=O)[C@H](CC2CCCCC2)NC1=O | 1.28

Sample 4 — concentration: 1 µM
Structure (SMILES): CCCOc1ccc([C@@H]2[C@@H](C(=O)O)[C@H](c3ccc4c(c3)OCO4)CN2CC(=O)Nc2c(CC)cccc2CC)cc1
target | observed | technique | remaining binding [%]
MAPKAPK2 (Homo sapiens, UniProt P49137) | cell-free assay | competition with immobilised ligand | 100
Tyrosine-protein kinase ABL1, phosphorylated (ABL1, Homo sapiens, UniProt P00519, F317I) | binding |  | 83
ACVRL1 (Homo sapiens, UniProt P37023) | binding | competition with immobilised ligand | 100
AKT1 (Homo sapiens, UniProt P31749) | cell-free assay | competition with immobilised ligand | 100
MELK (Homo sapiens, UniProt Q14680) | cell-free assay | competition with immobilised ligand | 84
KIT (Homo sapiens, UniProt P10721) | cell-free assay | competition with immobilised ligand | 90
Ribosomal protein S6 kinase alpha-2, C-terminal kinase domain (RPS6KA2, Homo sapiens, UniProt Q15349) | cell-free assay | competition with immobilised ligand | 81
Ribosomal protein S6 kinase alpha-1, N-terminal kinase domain (RPS6KA1, Homo sapiens, UniProt Q15418) | cell-free assay | competition with immobilised ligand | 100
SIK3 (Homo sapiens, UniProt Q9Y2K2) | cell-free assay | competition with immobilised ligand | 89
STK11 (Homo sapiens, UniProt Q15831) | cell-free assay | competition with immobilised ligand | 100
PIK3CA (Homo sapiens, UniProt P42336, E542K) | cell-free assay | competition with immobilised ligand | 81
ACVR2A (Homo sapiens, UniProt P27037) | cell-free assay | competition with immobilised ligand | 100
TIE1 (Homo sapiens, UniProt P35590) | cell-free assay | competition with immobilised ligand | 96
CSNK1G1 (Homo sapiens, UniProt Q9HCP0) | cell-free assay | competition with immobilised ligand | 97
CDC42BPG (Homo sapiens, UniProt Q6DT37) |  | competition binding | 57
EPHA1 (Homo sapiens, UniProt P21709) | cell-free assay | competition with immobilised ligand | 100
MAP3K11 (Homo sapiens, UniProt Q16584) | cell-free assay | competition with immobilised ligand | 100
BUB1 (Homo sapiens, UniProt O43683) | cell-free assay | competition with immobilised ligand | 92
PRKAA1 (Homo sapiens, UniProt Q13131) | cell-free assay | competition with immobilised ligand | 96
TLK2 (Homo sapiens, UniProt Q86UE8) | cell-free assay | competition with immobilised ligand | 100
Tyrosine-protein kinase ABL1, phosphorylated (ABL1, Homo sapiens, UniProt P00519, T315I) | cell-free assay | competition with immobilised ligand | 82
TRPM6 (Homo sapiens, UniProt Q9BX84) | cell-free assay | competition with immobilised ligand | 77

Repeated from above (sample 4):
target | observed | technique | remaining binding [%]
MELK (Homo sapiens, UniProt Q14680) | cell-free assay | competition with immobilised ligand | 84
KIT (Homo sapiens, UniProt P10721) | cell-free assay | competition with immobilised ligand | 90
Ribosomal protein S6 kinase alpha-2, C-terminal kinase domain (RPS6KA2, Homo sapiens, UniProt Q15349) | cell-free assay | competition with immobilised ligand | 81
Ribosomal protein S6 kinase alpha-1, N-terminal kinase domain (RPS6KA1, Homo sapiens, UniProt Q15418) | cell-free assay | competition with immobilised ligand | 100
